Assay results gathered from unrelated publications.
Compare with care: the assays were run in different laboratories. Values joined by “and” are separate records of one study, mostly repeats; a detail may differ. Numbers after ± are the reported error.
Rac GTPase-activating protein 1: Rac GTPase-activating protein 1 (Homo sapiens, UniProt Q9H0H5)
ELANE: Neutrophil elastase (ELANE, Homo sapiens, UniProt P08246)
USP14: Ubiquitin carboxyl-terminal hydrolase 14 (USP14, Homo sapiens, UniProt P54578)
Cacna1c: Voltage-dependent L-type calcium channel subunit alpha-1C (Cacna1c, Rattus norvegicus, UniProt P22002)
F12: Coagulation factor XII (F12, Homo sapiens, UniProt P00748)
Rab GDP dissociation inhibitor beta with Rab1A: Rab GDP dissociation inhibitor beta, with Rab1A (Homo sapiens, UniProt P50395)
GABBR1: Gamma-aminobutyric acid type B receptor subunit 1 (GABBR1, Homo sapiens, UniProt Q9UBS5)

C[Si]1(C[C@H](CN)CC(=O)O)CCCC1 gave an inhibition of 1% (ADCYAP1R1 (Homo sapiens, UniProt P41586); ligand displacement, radioligand; 70 µM).
Cc1ccc(C(C2=C(O)CC(C)(C)CC2=O)C2=C(O)CC(C)(C)CC2=O)o1 gave an inhibition of 25.1% (Rac GTPase-activating protein 1; enzyme activity, inhibitor, ADP detection; 20 µM).
For C[C@H](NC(=O)[C@H](CC(=O)NCC(C)(C)C)NC(=O)CCc1ccccc1)C(=O)NCc1ccccc1Cl, the inhibition was 12% (ELANE; enzyme activity, inhibitor; 100 µM).
The inhibition of C=CCNC(=O)c1ccc2nc(-c3ccco3)c(-c3ccco3)nc2c1 is reported as 62% (USP14; enzyme activity, inhibitor; 17 µM).
O=C1c2sc(-c3ccc(N4CCC(CO)CC4)nc3F)nc2CCN1c1cccnc1 gave an inhibition of -2% (AVPR1A (Homo sapiens, UniProt P37288); ligand displacement, radioligand; 1 µM).
Nc1nonc1C(=O)NN=c1c(=O)c2ccccc2c1=O has an inhibition of 59% (USP14; enzyme activity, inhibitor; 17 µM).
With CC(=O)C12NC(C)(C)CC1(C)C(=O)C1=C2c2c(c3c4n2C(C)(C)CC2=C4C4(CC(C)(C)NC(C)(C4)C2=O)CC3(C)C)C(=O)C(C)(C)N1 (single isomer, unassigned; (-)) the inhibition was 29.6% (Neuronal acetylcholine receptor; alpha3/beta4 (Homo sapiens, UniProt P30926+P32297); ion current, patch clamp; HEK-293T; 10 µM).
Under inhibition, COc1cc(N=Nc2ccc(C)cc2[N+](=O)[O-])c(C)cc1N=Nc1ccc(N(C)CCCN)cc1 is recorded as “no inhibition” (Histone acetyltransferase RTT109, with Vps75 (Saccharomyces cerevisiae, UniProt Q07794); H3K56 and H3K27 acetylation, slot blot; concentration not given).
Under “log2 fold change”, COC1CN([C@H]2CC[C@H]([C@@]3(C)Oc4c(Cl)cc(C(=O)NCc5c(SC)cc(C)[nH]c5=O)c(C)c4O3)CC2)C1 is recorded as 0.323 (RNA-seq, refers to: ANP32B mouse homolog; mouse, HT-1376 xenograft, whole blood; dose not given; reference: vehicle).
The inhibition of CCOC(=O)C1=C(C)OC2(O)c3ccccc3C(=O)C12O (stereo not drawn) is reported as 13% (USP14; enzyme activity, inhibitor; 17 µM).
With CC(=O)N1C(=O)NC(C)=C(C(=O)OCC(C)C)[C@H]1c1cccc([N+](=O)[O-])c1 the inhibition was about 80% (Cacna1c; ion current, inhibitor, patch clamp; HEK293; 10 µM).
For Nc1ccc2c(c1)OC1(CCCCC1)O2, the inhibition was 47.3% (Rac GTPase-activating protein 1; enzyme activity, inhibitor, ADP detection; 20 µM).
CCn1cc(C(=O)O)c(=O)c2c(N)c(F)c(NC3CCCCC3)cc21 has an inhibition of -4.9% (MASTL (Homo sapiens, UniProt Q96GX5); kinase activity; 0.1 µM, added: ATP at Km).
With Cc1ccc(CNC(=O)C(CCc2ccccc2)NC(=O)C(NC(=O)c2ccc(OCc3ccc(C(C)(C)C)cc3)cc2)C(C)O)cc1 (stereo not drawn) the inhibition was 36% (F12; enzyme activity, inhibitor; 100 µM).
CN(Cc1ccc(/C=C/C(=O)NO)cc1)CC12CC3CC(CC(C3)C1)C2 gave an inhibition of 11% (human 5-HT7 receptor; agonist radioligand binding; 0.05 µM).
The inhibition of O=C1C=C(N2CCOCC2)C(=O)N1c1ccc(Cl)cc1 is reported as 14% (USP14; enzyme activity, inhibitor; 17 µM).
Cc1cccc(O[C@H]2CCC[C@@H](C(C)CNCc3ccncc3)C2)c1 (relative stereo) gave an inhibition of -5% (RPS6KB2 (Homo sapiens, UniProt Q9UBS0); kinome profiling; 10 µM).
COc1ccc(S(=O)(=O)N2CCc3ccccc3C2)cc1N1CCN(C(=O)c2ccc(F)cc2C(F)(F)F)CC1 has an inhibition of 17% (Cacna1c; ligand displacement, radioligand; 1 µM).
For O=C(Nc1ccc(C(F)F)cc1)[C@H](CC1CCCCC1)Nc1nn2c(=O)ccnc2s1, the inhibition was 1% (PPP1CA (Homo sapiens, UniProt P62136); enzyme activity, inhibitor; 10 µM).
For C#CC[C@]1(O)C[C@H](C)N2CCc3cc(OCc4cc(C)cc(C)c4)c(OCc4cc(C)cc(C)c4)cc3[C@@H]2C1, the inhibition was 75.1% (Rab GDP dissociation inhibitor beta with Rab1A; GDI2-Rab1A interaction, inhibitor, NanoLuc complementation; 6.25 µM).
The inhibition of C=CC(=O)N1Cc2nc(-c3cc(-c4cc(Cl)cnc4Cl)c(F)cc3F)n(-c3ccncn3)c2C1 is reported as 2.6% (5'-AMP-activated protein kinase catalytic subunit alpha-1, with beta1, gamma3 (PRKAA1, Homo sapiens, UniProt Q13131); kinome panel; 1 µM).
COc1ccc(C[C@H](NC(=O)Cc2cccc(Oc3ccccc3)c2)C(=O)N[C@@H](Cc2c[nH]c3ccccc23)C(=O)NCc2ccc(C)cc2)cc1OC gave an inhibition of -7% (ELANE; enzyme activity, inhibitor; 100 µM).
CCOC(=O)C(Sc1nnc(-c2c[nH]c3ccccc23)n1C)C(=O)OCC gave an inhibition of 51.4% (Rac GTPase-activating protein 1; GAP activity, malachite green phosphate; concentration not given, orthogonal retest).
The inhibition of CC1=C(C)C(=O)C(NCc2ccco2)=CC1=O is reported as 44% (USP14; enzyme activity, inhibitor; 17 µM).
The inhibition of C=CC(=O)Nc1cccc(-c2cnc3[nH]cc(C(=O)NC(C)(C)C)c3n2)c1 is reported as 3% (PI4KB (Homo sapiens, UniProt Q9UBF8); enzyme activity, inhibitor; 0.1 µM).
C/C=C/C(=O)Nc1ccc2nc(NCCCCCN(C)C)nc(NCCCCCCN(C)C)c2c1 has an inhibition of 17% (SETD7 (Homo sapiens, UniProt Q8WTS6); enzyme activity, inhibitor, radiometric; 10 µM).
The activity concentration of CC(C)C[C@H](NC(=O)[C@H](Cc1ccc(O)cc1)NC(=O)[C@@H](CCCNC(=N)N)NC(=O)[C@@H](CO)NC(=O)[C@H](Cc1ccccc1)NC(=O)[C@H](CC1CCCCC1)NC(=O)[C@H](CC(=O)O)NC(=O)CN1CCN(CC(=O)O)CCN(CC(=O)O)CCN(CC(=O)O)CC1)C(=O)N[C@@H](Cc1c[nH]c2ccccc12)C(=O)N[C@@H](CO)C(=O)O [copper-64 labelled] is reported as 10400 Bq/mL and 9970 Bq/mL and 7490 Bq/mL and 8610 Bq/mL and 9640 Bq/mL and 7290 Bq/mL (human, kidney; concentration not given, 1 h).
Cn1ccc2cc(-n3c(=O)[nH]c4sc5c(c4c3=O)CCCC5)ccc21 has an inhibition of -11% (GABBR1; radioligand binding; 10 µM).
With CC(C)C[C@@H](NC(=O)[C@@H](CC(C)C)NC(=O)[C@@H](CC(=O)O)NC(=O)[C@@H](CC(C)C)NC(=O)[C@@H](CC(C)C)NC(=O)[C@@H](CC(C)C)NC(=O)[C@H](NC(=O)[C@@H](CC(=O)O)NC(=O)[C@H](NC(=O)[C@H]1CCCN1C(=O)[C@@H](Cc1ccccc1)NC(=O)[C@@H](CC(C)C)NC(=O)[C@@H](CC(C)C)NC(=O)[C@@H](CC(=O)O)NC(=O)[C@@H](CC(C)C)NC(=O)[C@@H](Cc1ccc(O)cc1)NC(=O)[C@@H](C)NC(=O)[C@@H](CCCNC(=N)N)NC(=O)[C@@H](Cc1c[nH]c2ccccc12)NC(=O)[C@H]1CCCN1C(=O)[C@@H](CC(N)=O)NC(=O)[C@@H](CCC(N)=O)NC(=O)[C@@H](CC(=O)O)NC(=O)[C@@H](CC(=O)O)NC(=O)[C@@H](CSC1CC(=O)N(CCNC(=O)CN2CCN(CC(=O)O)CCN(CC(=O)O)CC2)C1=O)NC(=O)[C@@H](C)N)[C@H](C)O)[C@H](C)O)C(=O)N[C@H](Cc1c[nH]c2ccccc12)C(=O)O (stereo partly drawn) [fluorine-18 labelled] the tissue uptake was 17.2 %ID/g (female C57BL/6 mice, B16-F10 melanoma, blood; intravenous, 4 h).
COc1ccc2c(c1)CCc1sc(N)nc1-2 gave an inhibition of 72.2% (Rac GTPase-activating protein 1; GAP activity, malachite green phosphate; concentration not given, orthogonal retest).
The IC50 of Cc1nn(-c2cccc(N)c2)c(=O)c2cnc(Nc3ccc(N4CCNCC4)cc3)nc12 is reported as over 10 µM (ROS1 (Homo sapiens, UniProt P08922); enzyme activity, inhibitor).
With Clc1ccc(NCc2ccc(Br)cc2)cc1 the inhibition was 72.2% (Rac GTPase-activating protein 1; enzyme activity, inhibitor, ADP detection; 20 µM).
With O=C(O)C(=O)N[C@H](Cc1ccc(O)cc1)C(=O)O the inhibition was 8% (KDM4E (Homo sapiens, UniProt B2RXH2); H3K9me3 demethylation, FDH-coupled; concentration not given).
O=C(O)Cc1cc2c(cc1C(=O)c1cccc(I)c1)OCO2 — result for “deactivation time constant”: 3.7 ± 0.2 ms (Gria2/Glutamate receptor 3 (Rattus norvegicus, UniProt P19491+P19492); whole-cell patch clamp; HEK-293T; concentration not given, added: glutamate).
CCOC(=O)c1cnc2c(C)cc(C)cc2c1NCCCN(C)C gave an inhibition of 28.2% (Rac GTPase-activating protein 1; enzyme activity, inhibitor, ADP detection; 20 µM).
With Cc1nc2c(F)cc(-c3nc(Nc4ccc(CNC(=O)CCCCCCC(=O)NO)cc4)ncc3F)cc2n1C(C)C the inhibition was 30% (Phosphatidylinositol 4,5-bisphosphate 3-kinase catalytic subunit alpha isoform, with p85 (PIK3CA, Homo sapiens, UniProt P42336); enzyme activity, inhibitor; 1 µM).
COCC(=O)N1CCc2cc(-c3csc(NC(=O)c4cc(OC)cc(OC)c4)n3)ccc21 gave an inhibition of 20% (Cacna1c; ligand displacement, radioligand; 10 µM).
With O=C(CN1CCO[C@@H](COc2cccc(Cl)c2)C1)N1CCc2ccccc21 the inhibition was -4% (HTR7 (Homo sapiens, UniProt P34969); radioligand binding; concentration not given, added: [3H]LSD).
CC1=NN(c2ccccc2)C(=O)C1=C1C(=O)Nc2ccccc21 gave an inhibition of 92% (USP14; enzyme activity, inhibitor; 17 µM).
With Cn1c(CNc2ccccc2Cl)nc2ccccc21 the inhibition was 71.5% (Rac GTPase-activating protein 1; enzyme activity, inhibitor, ADP detection; 10 µM).
CC(NC1=C(C(=O)/C=C/c2ccccc2)C(=O)CC(C)(C)C1)C(=O)O (stereo not drawn) has an inhibition of 11% (USP14; enzyme activity, inhibitor; 17 µM).
CO[C@@H](C)c1c(NC(=O)Nc2cnc(-n3nccn3)c(C(F)(F)F)c2)cnc2sc(C)nc12 gave an inhibition of -14.6% (Oprk1 (Rattus norvegicus, UniProt P34975); ligand displacement, radioligand; 10 µM).
CNS(=O)(=O)Nc1nccc(Cc2c(C)c3ccc(Oc4ncccc4F)cc3oc2=O)c1F has an IC50 of over 1 µM (COV434; cell viability; 7 days).
O=C(O)C(=CC(=O)c1ccccc1)Nc1ccccc1 gave an inhibition of 24% (USP14; enzyme activity, inhibitor; 17 µM).
For C[Si](C)(C)C[C@@H](CN)CC(=O)O, the inhibition was -2% (GABBR1; binding, radioligand binding; 75 µM, added: [3H]CGP-54626).
The inhibition of C=CCNC(=O)[C@H](CCc1ccccc1)NC(=O)[C@H](CC(=O)NCC(C)(C)C)NC(=O)CCc1ccccc1 is reported as 2% (ELANE; enzyme activity, inhibitor; 100 µM).
With O=c1ccsn1Cc1ccccc1 the inhibition was 91.9% (Rac GTPase-activating protein 1; enzyme activity, inhibitor, ADP detection; 10 µM).
Cc1ccc(CNC(=O)[C@H](CCc2ccccc2)NC(=O)[C@H](CCc2ccccc2)NC(=O)Cc2cccc(Oc3ccccc3)c2)cc1 has an inhibition of 37% (F12; enzyme activity, inhibitor; 100 µM).
For C[n+]1ccc(/C=N/NC(=O)c2cccc(C(=O)N/N=C/c3cc[n+](C)c4ccccc34)n2)c2ccccc21, the ΔTm was 15.3 ± 0.4 °C (MYC parallel G4 DNA; FRET melting; 1 µM, DNA 0.2 µM).
For Cc1cc(C)cc(COc2cc3c(cc2OCc2cc(C)cc(C)c2)[C@H]2C[C@@](O)(Cc4cn(Cc5ccc(F)cc5)nn4)C[C@@H](C)N2CC3)c1, the inhibition was 85% (Rab GDP dissociation inhibitor beta with Rab1A; GDI2-Rab1A interaction, NanoLuc complementation; 6.25 µM).
With CN1CCN(Cc2ccc(-c3ccc(CO[C@H]4CCC[C@@H]4NC(=O)c4cc(-c5cnn(C)c5)cnc4N)cc3)cc2)CC1 the inhibition was 16% (5'-AMP-activated protein kinase catalytic subunit alpha-1, with beta2, gamma3 (PRKAA1, Homo sapiens, UniProt Q13131); SelectScreen kinase profiling; 0.1 µM).

A few entries again:
The inhibition of C=CC(=O)Nc1cccc(-c2cnc3[nH]cc(C(=O)NC(C)(C)C)c3n2)c1 is reported as 3% (PI4KB (Homo sapiens, UniProt Q9UBF8); enzyme activity, inhibitor; 0.1 µM).
The inhibition of CCOC(=O)C1=C(C)OC2(O)c3ccccc3C(=O)C12O (stereo not drawn) is reported as 13% (USP14; enzyme activity, inhibitor; 17 µM).
Cc1ccc(CNC(=O)[C@H](CCc2ccccc2)NC(=O)[C@H](CCc2ccccc2)NC(=O)Cc2cccc(Oc3ccccc3)c2)cc1 has an inhibition of 37% (F12; enzyme activity, inhibitor; 100 µM).
The inhibition of CC1=C(C)C(=O)C(NCc2ccco2)=CC1=O is reported as 44% (USP14; enzyme activity, inhibitor; 17 µM).
